Results collected from several papers.
Lines come from different studies, so protocols differ. Values joined by “and” are separate records of one study, mostly repeats; a detail may differ. ± marks the error that the study gave.

| SMILES | test | system | conditions | scale | quantity | value |
| --- | --- | --- | --- | --- | --- | --- |
| Cn1cc(Nc2nccc(-c3ccc4c(c3)CN(C3COC3)CC[C@H]4NC(=O)c3cn(C(C)(C)C)nn3)n2)cn1 | refers to: interactions, ligand-receptor, VEGF family | splenic B cells, mice | 30 mg/kg, IgD-activated in vivo | relative to: vehicle, direction not given | pathway activation z-score | 2.11 |
| CCCCCCCCC1NCCc2cc(O)c(O)cc21 (stereo not drawn) | ferrozine | cell-free | 100 µM, DMSO solvent | – | Fe2+ chelation | 30.7 ± 1.66% |
| CC(C)c1c(C(=O)Nc2ccccc2)c(-c2ccccc2)c(-c2ccc(F)cc2)n1CC[C@@H](O)C[C@@H](O)CC(=O)O | Oil Red O staining | ApoE-/- mouse on high-fat diet | oral gavage, 20 doses every three days, 72 h | – | aortic wall plaque area | 3.71 ± 0.22% |
| N#Cc1ccc2c(c1)[C@H]1CCCN(C(=O)c3ccc4[nH]cnc4c3)[C@H]1C2 | – | human clinical trial | oral, 240 mg once daily, 28 d | – | 1,5-anhydroglucitol change from baseline | -0.1 mg/L |
| CC(=O)Oc1cc2c(s1)CCN(C(C(=O)C1CC1)c1ccccc1F)C2 (stereo not drawn) | platelet aggregation, light transmittance aggregometry | human, platelet-rich plasma | 30 min, IPA above 90 %, together with: TRAP 5 µM | relative to: patients | patients with IPA above threshold | 0% |
| CN(C)C(=O)Oc1cccc([N+](C)(C)C)c1 | neuromuscular block reversal | rat | dose not given, 3.5 (unit not given), together with: cisatracurium | relative to: T1 twitch | train-of-four ratio | 5.53 |
| C[C@@H](NC(=O)N1C(=O)[C@H](Cc2ccnc(N)c2)[C@H]1C(=O)O)C1CCCCC1 | – | human, plasma | continuous intravenous infusion, 0.3 mg/kg/h, days 1 to 6 of 5-day infusion, median | relative to: baseline | time to maximum PT over baseline | 121 h |
| COc1cc(Nc2ncc3c(n2)-c2ccc(Cl)cc2C(c2c(F)cccc2OC)=NC3)ccc1C(=O)O | – | female NOD/scid mice, ALL-19 B-precursor ALL xenograft | 20.8 mg/kg, 5 days weekly, score scale 0 to 10 | direction not given | median response score | 8 |
| Fc1ccc2c(c1)C#Cc1ccc(F)cc1C#C2 | UV spectroscopy | methanol | room temperature, together with: benzyl azide | – | second-order rate constant | 0.0457 M⁻¹ s⁻¹ and 0.0487 M⁻¹ s⁻¹ |
| C[C@H](NC(=O)c1c(C(F)F)nn(C)c1Oc1cccc(C(F)(F)F)c1)c1ccc(C(=O)O)cc1 | irRECIST | human, advanced tumours | 500 mg | best overall response | stable disease | 0% |
| COc1cc2nccc(Oc3ccc(NC(=O)C4(C(=O)Nc5ccc(F)cc5)CC4)cc3)c2cc1OC | – | Kaposi sarcoma patients | 60 mg daily, 5 of sample A patients | – | partial response rate | 26% |
| NCC(=O)Nc1cncc(-c2nn3c(=O)cc(N4CCNCC4)nc3s2)c1 | ADP-induced platelet aggregation, light transmission aggregometry | human stable CAD patients on aspirin, platelets ex vivo | 0.075 mg/kg, 240 min post dose, together with: 20 µM ADP | relative to: placebo difference | inhibition of platelet aggregation | 4.18% |
| CO[C@H]1CC[C@H](N2C(=O)CNc3ncc(-c4ccc(C(C)(C)O)nc4)nc32)CC1 | flow cytometry | stimulated T cells, human, blood | 30 mg single dose, 5 h, mean | relative to: baseline | p4EBP1 change from baseline | -37% |
| CC(C)[C@H](NC(=O)[C@H](Cc1ccc(O)cc1)NC(=O)[C@H](Cc1ccc(O)cc1)NC(=O)[C@@H]1CCCN1C(=O)[C@H](CCC(=O)O)NC(=O)[C@H](CCC(=O)O)NC(=O)[C@H](Cc1c[nH]c2ccccc12)NC(=O)[C@@H]1CCCN1C(=O)[C@@H](NC(=O)[C@H](CCC(N)=O)NC(=O)c1ccc2c(c1)C(=O)OC21c2ccc(O)cc2Oc2cc(O)ccc21)C(C)C)C(=O)N[C@H](C(=O)N[C@@H](CCCCN)C(=O)N[C@@H](CCCCN)C(=O)N[C@@H](CO)C(=O)N[C@@H](CO)C(=O)NCC(=O)NCC(N)=O)C(C)C | added benefit of NERVE | human head and neck surgery, nerves | 500 mg, slight added benefit | relative to: white light | share of responses | 35.7% |
| Cc1nn(-c2nc3c(F)cc(F)cc3s2)c(O)c1C(c1ccc(C(F)(F)F)cc1)c1c(C)nn(-c2nc3c(F)cc(F)cc3s2)c1O | refers to: pancreatic oedema | mouse, cerulein-induced acute pancreatitis | 25 mg/kg | direction not given | histology score | 2 and 0 and 1 and 3 |
| O=C(O)CNC(=O)Cc1ccccc1 | – | ventricular cardiomyocytes, C57BL/6 mouse | dose not given, 0.452 s | – | sarcomere length | 1.71 µm |
| N#Cc1ccc2c(c1)[C@H]1CCCN(C(=O)c3ccc4[nH]cnc4c3)[C@H]1C2 | – | human, plasma | 40 mg, day 15, 360 h | relative to: placebo and baseline | change in HOMA-IR | -30.9% |
| C[C@H](Oc1ccc(Br)cc1-c1ccon1)C(=O)O | mean CMAP amplitude | human, tibialis anterior muscle | 400 mg, SAD | – | difference from placebo | 0.06 mV |

| SMILES | test | system | conditions | scale | quantity | value |
| --- | --- | --- | --- | --- | --- | --- |
| CC(C)NCC(O)c1ccc(O)c(O)c1 (stereo not drawn) | – | ventricular cardiomyocytes, C57BL/6 mouse | dose not given, 0.564 s | – | sarcomere length | 1.53 µm |
| CC1(C)CCC(c2ccc(Cl)cc2)=C(CN2CCN(c3ccc(C(=O)NS(=O)(=O)c4ccc(N[C@H](CCN5CCOCC5)CSc5ccccc5)c(S(=O)(=O)C(F)(F)F)c4)cc3)CC2)C1 | cell killing | canine blood CD3+ T cells, dog 30 | 24 h | – | EC50 | 39 nM |
| Cn1cc([C@H]2C[C@H]3CSC(N)=N[C@@]3(c3ccc(F)cc3F)CO2)cn1 | refers to: Aβx-40 | wild-type mouse, plasma | subcutaneous, 3 mg/kg, 3 h | – | Aβ40 level | 0.1 ng/g |
| Oc1ccc(C2NCCc3cc(O)c(O)cc32)cc1O (stereo not drawn) | ferrozine | cell-free | 100 µM, DMSO solvent | – | Fe2+ chelation | 95.1 ± 1.54% |
| Cc1ccc([C@@H]2O[C@H](CO)[C@@H](O)[C@H](O)[C@H]2O)cc1Cc1ccc(-c2ccc(F)cc2)s1 | – | Japanese type 2 diabetes patients | 200 mg, day 2 | relative to: day 1 | change in fasting plasma glucose | -32 mg/dL |
| CN[C@@H]1COc2c(S(=O)(=O)NC(=O)Nc3c4c(cc5c3CCC5)CCC4)cnn2C1 | refers to: IL-18 | human participants, whole blood ex vivo | 300 mg twice daily, multiple doses, 152 h, IL-18, circulating, adjusted for, together with: LPS/ATP | relative to: baseline | inhibition | 97.8% |
| C=CCn1c(=O)c2cnc(Nc3ccc(N4CCN(C)CC4)cc3)nc2n1-c1ccc2c(n1)[C@@](O)(CC)CC2 | – | NCI-H1944 xenograft, NOD/SCID mice | oral, 80 mg/kg, day 28, once daily days 0-9 and 18-27 | – | tumour growth inhibition | 51.4% |
| N#Cc1ccc2c(-c3ccncc3)c(-c3ccc(F)cc3)nn2c1 | kinase binding, competitor, MIB/MS competition, refers to: IRE1 | Candida albicans cell lysate | 1 µM | relative to: DMSO | log2 fold change | 0.0765 |
| COc1ccccc1[C@H](Cn1c(=O)n(C(C)(C)C(=O)O)c(=O)c2c(C)c(-c3ncco3)sc21)OC1CCOCC1 | [1-13C]acetate infusion, isotopomer analysis | overweight or obese healthy men, plasma VLDL-TG palmitate | oral, 200 mg single dose, 8 h post-dose, together with: oral fructose | – | fractional hepatic DNL | 5.71 % new palmitate |
| OC(CCN1CCCCC1)(c1ccccc1)C1CC2C=CC1C2 (stereo not drawn) | resting-state EEG | healthy elderly humans | oral, 4 mg, eyes open, LS mean | – | EEG Alpha1-power Pz-O1 | 4.4 µV² |
| COC[C@@H](c1ccc(C(F)(F)F)cc1)N1CCN(C2(C)CCN(C(=O)c3c(C)ncnc3C)CC2)C[C@@H]1C | – | HIV-1 patients, plasma | dose not given, week 2, arms pooled | relative to: baseline | change in HIV-1 RNA | -1.13 log10 copies/mL |
| Cc1n[nH]c2ccc(-c3cc(OC[C@@H](N)Cc4ccccc4)cnc3-c3ccoc3)cc12 | kinase binding, competitor, MIB/MS competition, refers to: KIN2 | Candida albicans cell lysate | 10 µM | relative to: DMSO | log2 fold change | -0.154 |
| CCOc1c([C@H](C)n2nc(C)c3c(N)ncnc32)cc(Cl)c(F)c1[C@@H]1CNC(=O)C1 | Olink proximity extension proteomics, refers to: TNFRSF6B | human FL or MZL patients, plasma | dose not given, week 8 | relative to: baseline | plasma protein level change | -36% |
| CC(c1cc2ccccc2s1)N(O)C(N)=O (stereo not drawn) | refers to: 15-HEPE | human whole blood | 3 µM, together with: Escherichia coli | – | amount | 65 ± 20 pg/mL blood |
| Cc1ccc(C(=O)Nc2ccc(CN3CCN(C)CC3)c(C(F)(F)F)c2)cc1C#Cc1cnc2cccnn12 | platelet aggregation | platelet-rich plasma | 1 µM, DMSO 130.6, together with: collagen 2 mg/mL | – | lag time | 237 s |
| c1ccc(-c2n[nH]cc2-c2ccnc3ccccc23)nc1 | kinase binding, competitor, MIB/MS competition, refers to: HST7 | Candida albicans cell lysate | 10 µM | relative to: DMSO | log2 fold change | 1.81 |
| Cc1ccccc1C(=O)NCc1ccc(CNS(=O)(=O)c2ccccc2)cc1 | xylene-induced ear edema | mouse | intraperitoneal, 10 mg/kg | – | ear edema | no effect |
| CN(C)C(=O)c1cc2cnc(Nc3ccc(N4CCNCC4)cn3)nc2n1C1CCCC1 | RNA-seq GSEA, refers to: HALLMARK_XENOBIOTIC_METABOLISM gene set | MB002 tumour | concentration not given | relative to: vehicle, direction not given | normalized enrichment score | 1.37 |

For quick reference, copied from above:
| SMILES | test | system | conditions | scale | quantity | value |
| --- | --- | --- | --- | --- | --- | --- |
| CC(C)[C@H](NC(=O)[C@H](Cc1ccc(O)cc1)NC(=O)[C@H](Cc1ccc(O)cc1)NC(=O)[C@@H]1CCCN1C(=O)[C@H](CCC(=O)O)NC(=O)[C@H](CCC(=O)O)NC(=O)[C@H](Cc1c[nH]c2ccccc12)NC(=O)[C@@H]1CCCN1C(=O)[C@@H](NC(=O)[C@H](CCC(N)=O)NC(=O)c1ccc2c(c1)C(=O)OC21c2ccc(O)cc2Oc2cc(O)ccc21)C(C)C)C(=O)N[C@H](C(=O)N[C@@H](CCCCN)C(=O)N[C@@H](CCCCN)C(=O)N[C@@H](CO)C(=O)N[C@@H](CO)C(=O)NCC(=O)NCC(N)=O)C(C)C | added benefit of NERVE | human head and neck surgery, nerves | 500 mg, slight added benefit | relative to: white light | share of responses | 35.7% |
| COc1cc2nccc(Oc3ccc(NC(=O)C4(C(=O)Nc5ccc(F)cc5)CC4)cc3)c2cc1OC | – | Kaposi sarcoma patients | 60 mg daily, 5 of sample A patients | – | partial response rate | 26% |
